Published values of several laboratories.
Values joined by “and” are separate records of one study, mostly repeats; a detail may differ. Numbers after ± are the reported error.
Chain of UniProt P37231 (whole entry, looked up): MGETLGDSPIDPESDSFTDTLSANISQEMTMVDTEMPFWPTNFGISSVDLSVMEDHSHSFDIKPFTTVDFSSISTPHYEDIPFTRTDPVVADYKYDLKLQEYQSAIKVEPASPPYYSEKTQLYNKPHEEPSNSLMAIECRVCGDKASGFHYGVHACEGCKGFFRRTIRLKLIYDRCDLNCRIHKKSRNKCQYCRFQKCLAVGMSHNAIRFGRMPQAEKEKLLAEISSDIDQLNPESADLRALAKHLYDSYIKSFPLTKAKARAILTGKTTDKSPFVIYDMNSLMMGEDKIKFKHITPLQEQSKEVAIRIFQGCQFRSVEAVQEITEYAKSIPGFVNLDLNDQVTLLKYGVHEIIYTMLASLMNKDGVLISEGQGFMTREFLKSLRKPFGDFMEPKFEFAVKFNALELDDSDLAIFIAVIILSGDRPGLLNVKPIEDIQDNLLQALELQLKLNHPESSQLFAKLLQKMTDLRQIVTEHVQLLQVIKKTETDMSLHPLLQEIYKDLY
Chain of UniProt P46116 (whole entry, looked up): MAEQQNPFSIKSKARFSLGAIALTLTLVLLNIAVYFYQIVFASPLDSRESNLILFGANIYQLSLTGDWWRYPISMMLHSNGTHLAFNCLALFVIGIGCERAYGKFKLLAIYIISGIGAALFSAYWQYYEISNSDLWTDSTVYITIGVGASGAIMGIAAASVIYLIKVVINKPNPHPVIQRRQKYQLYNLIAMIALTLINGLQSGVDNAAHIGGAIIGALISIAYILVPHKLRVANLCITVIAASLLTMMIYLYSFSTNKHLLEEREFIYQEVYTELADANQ

COc1ccc(Nc2n[nH]c3nc(-c4ccccc4)nc(N)c23)c(OC)c1
IC50 (rhinovirus B42; viral cytopathic effect; HeLa): 550 nM

COc1cc(O)ccc1CCC(c1ccc(O)cc1)c1cc2c(c(C)c1O)OC(c1ccc(O)cc1)CC2 (mixture of isomers)
5-HEPE level (human blood; 0.3 µM, with: A23187): 94 ± 24 pg/mL

CNS(=O)(=O)Nc1nccc(Cc2c(C)c3ccc(Oc4ncccc4F)cc3oc2=O)c1F
IC50 (NCI-H82; cell viability; 7 days): > 1000 nM

COc1ccc(C(=O)CCc2cc(C(CCc3ccc(O)cc3OC)c3ccc(O)cc3)c(O)cc2OC)cc1 (racemic)
4-HDHA level (human blood; 10 µM, with: A23187): 27 ± 3 pg/mL

Nc1ncc(-c2cc(-c3cnn(CC(F)(F)F)c3)ncc2F)nc1C(=O)NC1CNCC(F)C1 (stereo not drawn)
remaining binding (DMPK2; KINOMEscan; 1 µM; reference: DMSO control): 68%

CN1CCC[C@]1(C)/C=C/S(=O)(=O)NC(=O)Nc1c2c(cc3c1CCC3)CCC2
IL-18 inhibition (human, whole blood ex vivo; 50 mg twice daily, day 14, 3 h, multiple ascending dose, with: LPS and ATP): 97.2%

C=CC(=O)N1[C@H](c2ccc3c(c2)OCO3)c2[nH]c3ccccc3c2C[C@@H]1C(=O)N1CCN(C)CC1
relative co-enrichment (human cyclin E1 N112C-3xFLAG:CDK2; co-IP with TMT proteomics, measured: PCBP1; concentration not given, Q15365; reference: wild type DMSO): 113%

C=C(NC(=O)c1csc(-c2nc3c(cc2O)-c2nc(cs2)C(=O)NC(C(C)O)C(=O)NC(=C(C)OC)c2nc(cs2)C(=O)NC2c4nc(cs4)C(=O)NC(COC(=O)c4c5c6c(cccc6n4O)COC(=O)C(OC4CC(C)(O)C(N(C)C)C(C)O4)C2OC5)c2nc-3cs2)n1)C(N)=O (stereo not drawn)
lung bacterial load (Streptococcus pneumoniae; -4, immunocompromised mice, lung infection; 2 mg/kg/day, twice daily, 24 h post-dose): 4.38 log CFU/g

C=CC(=O)Nc1cccc(Cn2ncc3cnc(Nc4cnn(CCOC)c4)nc32)c1
binding (human CSF1R-autoinhibited; KINOMEscan; 100 nM; reference: control): 3.4%

CC(=O)[O-].O.O.O.O.[Co+2].[O-]c1ccc(Br)cc1C=NCCN1CCOCC1
inhibition (superoxide scavenging; 120 µM): 26.5%

Nc1nc(-c2ccccc2)nc2[nH]nc(Nc3ccc(F)c(F)c3F)c12
IC50 (coxsackievirus B3; viral cytopathic effect; HeLa): 10 nM

CN1CCCNC(=O)c2cccc(c2)C(=O)NCCCN(C)CCCNc2cccc3c2C(=O)c2cccc(c2C3=O)NCCC1
log2 fold change (SAS; RNA-Seq, measured: POLR2A mRNA; 1 µM, 6 h; reference: untreated cells): -0.411

COc1ccc(Cl)cc1NC(=O)C(C(F)(F)F)C(F)(F)F
IC50 (Rhomboid protease AarA (Providencia stuartii, UniProt P46116); enzyme activity, inhibitor, fluorescence): 3400 nM

Nc1nc(-c2ccccc2)nc2[nH]nc(Nc3cccc(Cl)c3)c12
IC50 (coxsackievirus B3; viral cytopathic effect; HeLa): 10 nM

Cc1ncsc1-c1ccc(CNC(=O)[C@@H]2C[C@@H](O)CN2C(=O)[C@@H](NC(=O)CN2CCN(C3CN(CCNC(=O)C[C@@H]4N=C(c5ccc(Cl)cc5)c5c(sc(C)c5C)-n5c(C)nnc54)C3)CC2)C(C)(C)C)cc1
protein level (Spodoptera frugiperda; degrader, targeted LC-MS, measured: BRD3; Sf9; 0.001 µM): 91.7% and 138% and 94.6% and 76.2%

Cc1c(Cc2cccc(OC(C)(C)C(=O)O)c2)c2ccc(C(=O)N[C@@H](C)c3ccc(C(C)(C)C)cc3)cc2n1CC1CCC1
IC50 (Peroxisome proliferator-activated receptor gamma (PPARG, Homo sapiens, UniProt P37231); ligand displacement, TR-FRET): 3.19 nM

COC1CN([C@H]2CC[C@H]([C@@]3(C)Oc4c(Cl)cc(C(=O)NCc5c(SC)cc(C)[nH]c5=O)c(C)c4O3)CC2)C1
log2 fold change (RNA-seq, measured: WNK2; human, whole blood; dose not given, 24 h; reference: pretreatment baseline): 6.2

Nc1nc(-c2ccccc2)nc2[nH]nc(Nc3ccc(F)cc3F)c12
IC50 (rhinovirus B42; viral cytopathic effect; HeLa): 10 nM

Cc1ncsc1-c1ccc(C(C)NC(=O)C2CC(O)CN2C(=O)C(NC(=O)CCCCCCCCCCN2CCCC(Nc3ncc(Cl)c(Nc4ccccc4S(=O)(=O)C(C)C)n3)C2)C(C)(C)C)cc1 (stereo not drawn)
log2 fold change (22Rv1; RNA-seq, measured: ZNF558 mRNA; concentration not given; reference: DMSO): -1.12

CSc1ccc(Nc2n[nH]c3nc(-c4ccccc4)nc(N)c23)cc1
IC50 (rhinovirus B42; viral cytopathic effect; HeLa): 10 nM

CC(C)(C)NCC(SS(=O)(=O)O)c1ccccc1 (stereo not drawn)
spleen weight (Schistosoma mansoni; perfusion day 52; infected Swiss Webster mice; 600 mg/kg single dose, 1248 h, dosed day 7 post-infection): 0.74 g

Nc1nc(-c2ccccc2)nc2[nH]nc(Nc3cccc(F)c3F)c12
IC50 (coxsackievirus B3; viral cytopathic effect; HeLa): 30 nM

Cc1c(C)c2cccnc2c2ncccc12.O=[N+]([O-])[O-].O=c1c(C=NN=C([S-])Nc2ccccc2)coc2ccccc12.[Cu+2]
nicked circular DNA (supercoiled pUC19 DNA; oxidative DNA cleavage; concentration not given, catalase 0.1 U, with: ascorbic acid): 14%

Cc1c(Cc2ccc(OC(C)C(=O)O)cc2)c2ccc(C(=O)NC(C)c3cccc(C4CC4)c3)cc2n1C (mixture of isomers)
IC50 (Peroxisome proliferator-activated receptor gamma, ligand-binding domain (PPARG, Homo sapiens, UniProt P37231); reporter gene, luciferase reporter; HEK293T, Gal4-PPARγ LBD): 6940 nM

Some of these lines once more:
Nc1nc(-c2ccccc2)nc2[nH]nc(Nc3cccc(Cl)c3)c12
IC50 (coxsackievirus B3; viral cytopathic effect; HeLa): 10 nM

Cc1ncsc1-c1ccc(CNC(=O)[C@@H]2C[C@@H](O)CN2C(=O)[C@@H](NC(=O)CN2CCN(C3CN(CCNC(=O)C[C@@H]4N=C(c5ccc(Cl)cc5)c5c(sc(C)c5C)-n5c(C)nnc54)C3)CC2)C(C)(C)C)cc1
protein level (Spodoptera frugiperda; degrader, targeted LC-MS, measured: BRD3; Sf9; 0.001 µM): 91.7% and 138% and 94.6% and 76.2%

Cc1c(Cc2cccc(OC(C)(C)C(=O)O)c2)c2ccc(C(=O)N[C@@H](C)c3ccc(C(C)(C)C)cc3)cc2n1CC1CCC1
IC50 (Peroxisome proliferator-activated receptor gamma (PPARG, Homo sapiens, UniProt P37231); ligand displacement, TR-FRET): 3.19 nM
